Results gathered from unrelated publications.
Parts stem from different laboratories: compare values within a part only. Several values in a cell are separate wells, animals, samples, runs or records.
Chain of UniProt Q96SB4 (whole entry, looked up): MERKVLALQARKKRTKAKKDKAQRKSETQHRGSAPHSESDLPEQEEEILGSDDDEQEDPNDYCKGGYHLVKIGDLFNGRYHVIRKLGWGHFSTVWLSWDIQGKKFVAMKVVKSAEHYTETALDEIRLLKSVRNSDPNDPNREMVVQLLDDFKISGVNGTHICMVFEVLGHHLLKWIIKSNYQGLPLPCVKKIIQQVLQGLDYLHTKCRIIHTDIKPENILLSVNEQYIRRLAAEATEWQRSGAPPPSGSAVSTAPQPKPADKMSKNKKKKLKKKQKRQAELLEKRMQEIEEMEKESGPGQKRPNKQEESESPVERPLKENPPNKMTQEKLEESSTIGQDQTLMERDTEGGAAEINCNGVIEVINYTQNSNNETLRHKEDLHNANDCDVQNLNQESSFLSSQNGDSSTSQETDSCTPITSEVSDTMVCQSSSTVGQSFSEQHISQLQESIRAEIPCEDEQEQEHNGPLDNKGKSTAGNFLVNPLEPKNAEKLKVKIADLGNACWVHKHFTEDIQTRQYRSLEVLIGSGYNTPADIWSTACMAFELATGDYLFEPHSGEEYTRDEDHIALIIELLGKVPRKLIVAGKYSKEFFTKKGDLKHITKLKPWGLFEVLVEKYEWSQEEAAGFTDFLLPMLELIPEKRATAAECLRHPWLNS
Chain of UniProt O75716 (whole entry, looked up): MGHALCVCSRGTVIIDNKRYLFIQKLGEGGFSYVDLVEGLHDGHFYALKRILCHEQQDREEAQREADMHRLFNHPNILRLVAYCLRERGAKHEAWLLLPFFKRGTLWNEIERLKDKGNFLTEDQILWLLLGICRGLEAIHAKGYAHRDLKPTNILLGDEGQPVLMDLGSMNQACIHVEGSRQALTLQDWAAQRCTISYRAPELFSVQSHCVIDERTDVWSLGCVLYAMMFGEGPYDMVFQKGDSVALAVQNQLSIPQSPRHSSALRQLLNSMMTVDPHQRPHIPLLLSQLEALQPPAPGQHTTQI
Chain of UniProt P11362 (whole entry, looked up): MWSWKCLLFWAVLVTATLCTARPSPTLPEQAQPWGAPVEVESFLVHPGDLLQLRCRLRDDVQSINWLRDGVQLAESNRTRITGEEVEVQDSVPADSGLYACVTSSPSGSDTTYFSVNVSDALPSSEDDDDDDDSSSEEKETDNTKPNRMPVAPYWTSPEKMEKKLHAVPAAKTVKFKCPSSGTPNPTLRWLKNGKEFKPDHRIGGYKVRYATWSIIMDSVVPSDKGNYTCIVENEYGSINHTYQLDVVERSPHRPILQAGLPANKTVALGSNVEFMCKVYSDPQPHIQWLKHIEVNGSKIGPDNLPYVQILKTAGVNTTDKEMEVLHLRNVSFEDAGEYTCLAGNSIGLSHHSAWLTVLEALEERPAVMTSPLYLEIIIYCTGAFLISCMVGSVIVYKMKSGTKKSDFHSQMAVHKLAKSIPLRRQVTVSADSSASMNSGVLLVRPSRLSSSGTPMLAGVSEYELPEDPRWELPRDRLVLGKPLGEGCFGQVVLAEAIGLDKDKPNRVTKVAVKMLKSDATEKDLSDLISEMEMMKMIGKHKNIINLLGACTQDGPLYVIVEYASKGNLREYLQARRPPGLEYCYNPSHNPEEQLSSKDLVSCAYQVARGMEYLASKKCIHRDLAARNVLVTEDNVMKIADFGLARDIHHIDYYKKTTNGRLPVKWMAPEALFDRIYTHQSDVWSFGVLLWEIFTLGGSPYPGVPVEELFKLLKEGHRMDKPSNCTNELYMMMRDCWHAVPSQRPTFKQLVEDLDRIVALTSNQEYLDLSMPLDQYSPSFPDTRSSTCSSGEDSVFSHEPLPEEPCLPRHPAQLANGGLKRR
Chain of UniProt Q9BYP7 (whole entry, looked up): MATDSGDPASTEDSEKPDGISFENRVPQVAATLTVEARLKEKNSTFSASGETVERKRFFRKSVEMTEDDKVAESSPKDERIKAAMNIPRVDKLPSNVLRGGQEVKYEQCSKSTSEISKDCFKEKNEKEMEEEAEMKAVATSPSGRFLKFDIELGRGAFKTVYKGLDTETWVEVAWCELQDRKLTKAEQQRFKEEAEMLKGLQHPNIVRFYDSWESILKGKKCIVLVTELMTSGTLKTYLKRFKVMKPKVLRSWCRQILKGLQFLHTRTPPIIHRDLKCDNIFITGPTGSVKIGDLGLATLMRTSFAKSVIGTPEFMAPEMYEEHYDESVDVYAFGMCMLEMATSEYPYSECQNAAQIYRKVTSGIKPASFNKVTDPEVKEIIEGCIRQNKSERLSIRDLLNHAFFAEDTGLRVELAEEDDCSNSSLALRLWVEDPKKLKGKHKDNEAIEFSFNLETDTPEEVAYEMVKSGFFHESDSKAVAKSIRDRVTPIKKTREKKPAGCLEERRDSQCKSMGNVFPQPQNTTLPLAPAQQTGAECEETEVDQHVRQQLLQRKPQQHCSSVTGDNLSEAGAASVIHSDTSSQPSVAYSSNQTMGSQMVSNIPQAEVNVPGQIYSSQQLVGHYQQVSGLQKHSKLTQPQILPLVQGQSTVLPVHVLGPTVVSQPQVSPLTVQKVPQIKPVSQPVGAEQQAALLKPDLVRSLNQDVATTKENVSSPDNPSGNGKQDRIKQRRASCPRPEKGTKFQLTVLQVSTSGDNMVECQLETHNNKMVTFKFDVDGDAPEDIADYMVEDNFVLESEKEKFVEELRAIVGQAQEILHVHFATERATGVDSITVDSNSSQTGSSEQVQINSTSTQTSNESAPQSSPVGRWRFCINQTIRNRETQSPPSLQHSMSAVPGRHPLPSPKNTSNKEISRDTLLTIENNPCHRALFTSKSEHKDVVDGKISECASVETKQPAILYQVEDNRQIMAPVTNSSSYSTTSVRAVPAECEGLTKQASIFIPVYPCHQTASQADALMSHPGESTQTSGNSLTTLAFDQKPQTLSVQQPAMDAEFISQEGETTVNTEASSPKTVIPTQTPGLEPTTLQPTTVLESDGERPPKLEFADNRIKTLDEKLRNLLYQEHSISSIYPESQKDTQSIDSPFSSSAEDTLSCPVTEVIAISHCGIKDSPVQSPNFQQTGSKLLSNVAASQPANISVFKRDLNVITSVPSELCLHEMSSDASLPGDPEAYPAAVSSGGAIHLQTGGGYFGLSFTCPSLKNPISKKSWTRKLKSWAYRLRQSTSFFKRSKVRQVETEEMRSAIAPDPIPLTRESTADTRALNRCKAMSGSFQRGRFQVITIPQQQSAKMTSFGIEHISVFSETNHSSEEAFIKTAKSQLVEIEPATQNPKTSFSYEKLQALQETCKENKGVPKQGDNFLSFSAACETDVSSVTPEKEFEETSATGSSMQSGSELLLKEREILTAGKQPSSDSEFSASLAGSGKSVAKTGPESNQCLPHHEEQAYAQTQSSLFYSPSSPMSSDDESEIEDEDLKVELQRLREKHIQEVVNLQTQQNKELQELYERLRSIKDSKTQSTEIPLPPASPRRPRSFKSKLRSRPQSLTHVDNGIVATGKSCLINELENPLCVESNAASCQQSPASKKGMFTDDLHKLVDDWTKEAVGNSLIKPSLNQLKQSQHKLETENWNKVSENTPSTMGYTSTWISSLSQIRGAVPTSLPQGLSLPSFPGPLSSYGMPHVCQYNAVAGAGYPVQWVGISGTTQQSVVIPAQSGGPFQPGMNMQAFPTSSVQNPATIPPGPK
Chain of UniProt Q2M2I8 (whole entry, looked up): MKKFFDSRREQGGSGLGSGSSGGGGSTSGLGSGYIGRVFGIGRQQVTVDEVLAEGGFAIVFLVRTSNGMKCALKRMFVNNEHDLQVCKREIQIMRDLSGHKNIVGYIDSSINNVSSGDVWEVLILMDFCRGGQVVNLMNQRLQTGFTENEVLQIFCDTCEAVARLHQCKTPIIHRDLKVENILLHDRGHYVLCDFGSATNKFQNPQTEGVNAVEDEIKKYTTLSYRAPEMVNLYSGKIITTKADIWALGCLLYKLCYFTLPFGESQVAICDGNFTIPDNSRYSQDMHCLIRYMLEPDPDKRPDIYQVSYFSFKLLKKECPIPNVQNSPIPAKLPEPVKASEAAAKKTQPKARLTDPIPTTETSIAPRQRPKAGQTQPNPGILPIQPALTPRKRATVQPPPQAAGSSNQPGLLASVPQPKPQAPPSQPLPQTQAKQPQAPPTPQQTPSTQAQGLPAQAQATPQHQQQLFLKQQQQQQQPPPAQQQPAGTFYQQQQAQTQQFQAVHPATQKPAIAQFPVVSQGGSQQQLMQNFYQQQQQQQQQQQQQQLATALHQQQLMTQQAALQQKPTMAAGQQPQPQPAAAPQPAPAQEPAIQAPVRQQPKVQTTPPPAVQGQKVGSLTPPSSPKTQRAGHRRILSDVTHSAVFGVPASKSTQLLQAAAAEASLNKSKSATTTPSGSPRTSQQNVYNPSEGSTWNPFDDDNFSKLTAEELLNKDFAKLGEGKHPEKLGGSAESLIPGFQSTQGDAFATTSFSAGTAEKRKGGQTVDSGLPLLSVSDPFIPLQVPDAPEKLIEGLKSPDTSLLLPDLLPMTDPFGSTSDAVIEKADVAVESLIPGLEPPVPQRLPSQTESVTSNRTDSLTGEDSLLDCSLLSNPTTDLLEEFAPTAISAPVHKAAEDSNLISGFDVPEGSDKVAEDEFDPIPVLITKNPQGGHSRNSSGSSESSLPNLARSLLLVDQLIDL
Chain of UniProt Q86YV6 (whole entry, looked up): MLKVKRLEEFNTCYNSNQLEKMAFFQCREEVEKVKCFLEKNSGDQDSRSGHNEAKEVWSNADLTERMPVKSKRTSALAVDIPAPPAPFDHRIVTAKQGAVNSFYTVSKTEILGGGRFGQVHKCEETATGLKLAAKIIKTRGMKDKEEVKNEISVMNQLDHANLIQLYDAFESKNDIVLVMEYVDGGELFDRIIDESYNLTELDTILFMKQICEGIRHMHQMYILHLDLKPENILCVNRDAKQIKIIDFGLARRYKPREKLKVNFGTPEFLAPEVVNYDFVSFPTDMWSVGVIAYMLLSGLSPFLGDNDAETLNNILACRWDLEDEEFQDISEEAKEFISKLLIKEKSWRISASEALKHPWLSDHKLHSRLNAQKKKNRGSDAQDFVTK

Study 1 — tested at: 1 µM
SMILES: O=C(NC[C@@H]1[C@H]2CN(C(=O)OCc3cc(C(F)(F)F)cc(C(F)(F)F)c3)C[C@@H]12)c1ccc2[nH]nnc2c1
For MYLK4 (Homo sapiens, UniProt Q86YV6); cell-free assay, competition with immobilised ligand: remaining binding read 100%.
For STK16 (Homo sapiens, UniProt O75716); cell-free assay, competition with immobilised ligand: remaining binding read 100%.
For WNK3 (Homo sapiens, UniProt Q9BYP7); cell-free assay, competition with immobilised ligand: remaining binding read 100%.
The remaining binding was 81% (MAP3K6 (Homo sapiens, UniProt O95382); cell-free assay, competition with immobilised ligand).
The remaining binding was 100% (EGFR (Homo sapiens, UniProt P00533, del747-750/T751S); cell-free assay, competition with immobilised ligand).
For MAP3K3 (Homo sapiens, UniProt Q99759); cell-free assay, competition with immobilised ligand: remaining binding read 94%.
For FGFR1 (Homo sapiens, UniProt P11362); cell-free assay, competition with immobilised ligand: remaining binding read 90%.
For DYRK1B (Homo sapiens, UniProt Q9Y463); cell-free assay, competition with immobilised ligand: remaining binding read 86%.
AAK1 (Homo sapiens, UniProt Q2M2I8); binding — remaining binding: 96%.
It gave 81% for remaining binding (SRPK1 (Homo sapiens, UniProt Q96SB4); cell-free assay, competition with immobilised ligand).
It gave 98% for remaining binding (GSK3B (Homo sapiens, UniProt P49841); cell-free assay, competition with immobilised ligand).
It gave 97% for remaining binding (MYLK2 (Homo sapiens, UniProt Q9H1R3); cell-free assay, competition with immobilised ligand).
The remaining binding was 88% (TAOK3 (Homo sapiens, UniProt Q9H2K8); cell-free assay, competition with immobilised ligand).

Study 2 — observed: enzyme activity; action: inhibitor; tested at: 0.5 µM; relative to: control
Target: Activin receptor type-1 (ACVR1, Homo sapiens, UniProt Q04771)
Residues (Q04771 1-509): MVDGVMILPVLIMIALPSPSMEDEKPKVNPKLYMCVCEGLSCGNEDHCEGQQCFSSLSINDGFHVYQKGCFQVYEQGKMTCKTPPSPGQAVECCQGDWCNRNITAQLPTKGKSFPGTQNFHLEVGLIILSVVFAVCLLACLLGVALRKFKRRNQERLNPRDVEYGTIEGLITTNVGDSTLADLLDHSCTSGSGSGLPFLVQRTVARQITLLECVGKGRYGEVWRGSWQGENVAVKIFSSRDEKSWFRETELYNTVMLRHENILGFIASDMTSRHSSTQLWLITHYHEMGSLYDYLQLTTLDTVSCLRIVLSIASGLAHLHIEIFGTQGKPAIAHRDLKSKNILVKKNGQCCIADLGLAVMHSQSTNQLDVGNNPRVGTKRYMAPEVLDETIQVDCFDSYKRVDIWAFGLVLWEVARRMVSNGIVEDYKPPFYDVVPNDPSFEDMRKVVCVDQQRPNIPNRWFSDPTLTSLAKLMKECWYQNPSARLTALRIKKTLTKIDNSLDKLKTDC
`Nc1ccc2ncnc(NCCc3ccc(Oc4ccccc4)cc3)c2c1` has a remaining activity of 91.8%.
With `O=C1NC(=O)C(c2cn(CCCn3ccnc3)c3ccccc23)=C1Nc1ccccc1` the remaining activity was 94.4%.
`COc1ccc(C(=O)Nc2sc3c(c2C(N)=O)CCCC3)cc1OC` gave a remaining activity of 159%.
`COc1cc2nccc(Oc3ccc(NC(=S)NC(=O)c4ccccc4C)cc3)c2cc1OC` has a remaining activity of 93.5%.
`Cc1ccc(NC(=O)c2ccc(CN3CCN(C)CC3)cc2)cc1Nc1nc(-c2cccnc2)cs1` gave a remaining activity of 101%.
The remaining activity of `COc1cc2ncnc(Nc3ccc(F)c(Cl)c3)c2cc1OCCCN1CCOCC1` is reported as 106%.
With `COc1ccc(OC)c2c(=S)c3ccccc3[nH]c12` the remaining activity was 99.2%.
`Cc1cccc(-c2[nH]c(C(C)(C)C)nc2-c2ccc3c(c2)OCO3)n1` gave a remaining activity of 96.4%.
`NCCNc1ncc(C(N)=O)c(Nc2cccc(C(F)(F)F)c2)n1` has a remaining activity of 98.9%.
For `O=C1NC(=O)C(c2cn(CCCO)c3ncccc23)=C1c1cnccn1`, the remaining activity was 97%.
`O=S(=O)(c1cccc2cnccc12)N1CCCNCC1` has a remaining activity of 96.5%.
`Cn1sc(=O)n(Cc2ccccc2)c1=O` gave a remaining activity of 102%.
`COc1ccc(CNC(=O)Nc2ncc([N+](=O)[O-])s2)cc1` gave a remaining activity of 99.5%.
`CN(C)c1ccc(C=C2C(=O)Nc3ccccc32)cc1` gave a remaining activity of 104%.
`OCC(O)CCON=C1C(c2c(O)[nH]c3ccccc23)=Nc2ccccc21` (stereo not drawn) has a remaining activity of 199%.

Single results of other studies
`CC(C)n1cnc(-c2ccc(F)cc2)c1-c1ncc(C(=O)Nc2ccc(N3CCN(C)CC3)cc2)[nH]1` — result for “patients with serious adverse events”: 0% (phase 2a clinical trial; patients with idiopathic pulmonary fibrosis; 30 mg once daily, grade ≥3, without standard of care).
`CC(=O)N[C@@H](Cc1c[nH]c2ccccc12)C(=O)N[C@@H](CCC(=O)C=[N+]=[N-])C(=O)OC(C)C`: “ribose 1-phosphate level” 6.97e+06 a.u. and 6.12e+06 a.u. and 9.56e+06 a.u. and 7.4e+06 a.u. and 7.65e+06 a.u. and 7.47e+06 a.u. (UPLC-MS/MS; EL4 tumor, C57BL/6 CES1-/- mice, tumor; subcutaneous, 0.3 mg/kg DON equivalent daily, 5 days; higher = more metabolite).
